Measured values from different studies.
A part holds a random share of what one study measured.
Chain of UniProt P51817 (whole entry, looked up): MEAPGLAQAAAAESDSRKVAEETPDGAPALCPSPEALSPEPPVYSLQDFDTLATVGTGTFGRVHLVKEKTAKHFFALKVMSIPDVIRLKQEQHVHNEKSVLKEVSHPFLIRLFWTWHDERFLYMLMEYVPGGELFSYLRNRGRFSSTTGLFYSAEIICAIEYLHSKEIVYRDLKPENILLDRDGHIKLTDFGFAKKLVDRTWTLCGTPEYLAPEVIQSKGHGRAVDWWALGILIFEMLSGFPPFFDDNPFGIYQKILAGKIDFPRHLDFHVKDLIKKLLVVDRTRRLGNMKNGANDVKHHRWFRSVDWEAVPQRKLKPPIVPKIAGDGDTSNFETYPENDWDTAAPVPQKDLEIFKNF
Chain of UniProt P22607 (whole entry, unmodified, looked up): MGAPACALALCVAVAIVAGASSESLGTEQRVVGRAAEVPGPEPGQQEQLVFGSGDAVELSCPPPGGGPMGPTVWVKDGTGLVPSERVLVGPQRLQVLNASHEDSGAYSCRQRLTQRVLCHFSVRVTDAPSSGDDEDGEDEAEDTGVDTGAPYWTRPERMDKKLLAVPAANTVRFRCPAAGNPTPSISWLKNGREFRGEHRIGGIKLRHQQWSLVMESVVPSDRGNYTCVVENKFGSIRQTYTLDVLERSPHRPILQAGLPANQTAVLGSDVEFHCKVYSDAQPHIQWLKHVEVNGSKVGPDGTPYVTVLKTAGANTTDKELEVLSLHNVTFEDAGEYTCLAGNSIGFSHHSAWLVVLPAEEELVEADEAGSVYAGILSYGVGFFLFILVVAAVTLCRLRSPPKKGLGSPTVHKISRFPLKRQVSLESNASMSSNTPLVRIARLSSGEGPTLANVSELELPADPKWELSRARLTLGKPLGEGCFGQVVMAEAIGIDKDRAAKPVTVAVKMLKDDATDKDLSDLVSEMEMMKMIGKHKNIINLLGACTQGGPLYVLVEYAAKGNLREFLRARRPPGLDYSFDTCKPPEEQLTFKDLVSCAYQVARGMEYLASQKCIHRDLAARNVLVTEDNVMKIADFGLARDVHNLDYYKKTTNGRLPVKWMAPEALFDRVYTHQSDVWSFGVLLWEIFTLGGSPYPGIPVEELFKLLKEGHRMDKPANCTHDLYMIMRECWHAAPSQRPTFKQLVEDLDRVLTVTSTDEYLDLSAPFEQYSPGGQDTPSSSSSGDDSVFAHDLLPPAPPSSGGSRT
Chain of UniProt Q9Y6E0 (whole entry, looked up): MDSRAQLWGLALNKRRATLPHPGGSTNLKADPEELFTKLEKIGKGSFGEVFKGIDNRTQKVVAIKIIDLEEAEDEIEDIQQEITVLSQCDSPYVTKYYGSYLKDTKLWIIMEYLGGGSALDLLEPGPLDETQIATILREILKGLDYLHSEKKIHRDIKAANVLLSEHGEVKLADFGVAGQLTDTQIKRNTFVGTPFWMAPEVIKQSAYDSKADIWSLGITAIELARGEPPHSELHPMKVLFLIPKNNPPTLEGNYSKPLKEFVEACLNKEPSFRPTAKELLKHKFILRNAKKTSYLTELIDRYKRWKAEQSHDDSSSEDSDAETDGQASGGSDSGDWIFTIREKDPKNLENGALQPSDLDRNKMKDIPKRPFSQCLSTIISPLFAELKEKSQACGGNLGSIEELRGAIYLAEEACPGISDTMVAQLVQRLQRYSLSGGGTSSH
Chain of UniProt Q15349 (whole entry, looked up): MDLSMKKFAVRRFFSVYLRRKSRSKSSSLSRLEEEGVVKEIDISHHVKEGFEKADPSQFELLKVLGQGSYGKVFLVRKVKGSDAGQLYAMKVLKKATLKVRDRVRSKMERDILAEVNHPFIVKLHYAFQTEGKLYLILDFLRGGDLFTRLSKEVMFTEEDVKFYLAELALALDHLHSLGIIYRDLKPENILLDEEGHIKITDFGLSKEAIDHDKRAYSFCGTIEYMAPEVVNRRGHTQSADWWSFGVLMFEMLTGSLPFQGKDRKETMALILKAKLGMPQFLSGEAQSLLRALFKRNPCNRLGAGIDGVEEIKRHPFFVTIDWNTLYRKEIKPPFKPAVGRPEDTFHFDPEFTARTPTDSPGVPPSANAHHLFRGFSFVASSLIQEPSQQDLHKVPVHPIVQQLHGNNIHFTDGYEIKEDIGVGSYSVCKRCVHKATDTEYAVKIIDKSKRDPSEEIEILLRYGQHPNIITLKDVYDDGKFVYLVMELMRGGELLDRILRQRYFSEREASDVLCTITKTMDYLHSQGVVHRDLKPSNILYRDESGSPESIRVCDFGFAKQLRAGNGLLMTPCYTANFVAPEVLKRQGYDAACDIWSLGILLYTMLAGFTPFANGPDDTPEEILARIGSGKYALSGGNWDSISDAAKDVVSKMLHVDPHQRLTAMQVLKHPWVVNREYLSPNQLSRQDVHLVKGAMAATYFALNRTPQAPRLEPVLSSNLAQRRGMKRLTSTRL
Chain of UniProt O95382 (whole entry, looked up): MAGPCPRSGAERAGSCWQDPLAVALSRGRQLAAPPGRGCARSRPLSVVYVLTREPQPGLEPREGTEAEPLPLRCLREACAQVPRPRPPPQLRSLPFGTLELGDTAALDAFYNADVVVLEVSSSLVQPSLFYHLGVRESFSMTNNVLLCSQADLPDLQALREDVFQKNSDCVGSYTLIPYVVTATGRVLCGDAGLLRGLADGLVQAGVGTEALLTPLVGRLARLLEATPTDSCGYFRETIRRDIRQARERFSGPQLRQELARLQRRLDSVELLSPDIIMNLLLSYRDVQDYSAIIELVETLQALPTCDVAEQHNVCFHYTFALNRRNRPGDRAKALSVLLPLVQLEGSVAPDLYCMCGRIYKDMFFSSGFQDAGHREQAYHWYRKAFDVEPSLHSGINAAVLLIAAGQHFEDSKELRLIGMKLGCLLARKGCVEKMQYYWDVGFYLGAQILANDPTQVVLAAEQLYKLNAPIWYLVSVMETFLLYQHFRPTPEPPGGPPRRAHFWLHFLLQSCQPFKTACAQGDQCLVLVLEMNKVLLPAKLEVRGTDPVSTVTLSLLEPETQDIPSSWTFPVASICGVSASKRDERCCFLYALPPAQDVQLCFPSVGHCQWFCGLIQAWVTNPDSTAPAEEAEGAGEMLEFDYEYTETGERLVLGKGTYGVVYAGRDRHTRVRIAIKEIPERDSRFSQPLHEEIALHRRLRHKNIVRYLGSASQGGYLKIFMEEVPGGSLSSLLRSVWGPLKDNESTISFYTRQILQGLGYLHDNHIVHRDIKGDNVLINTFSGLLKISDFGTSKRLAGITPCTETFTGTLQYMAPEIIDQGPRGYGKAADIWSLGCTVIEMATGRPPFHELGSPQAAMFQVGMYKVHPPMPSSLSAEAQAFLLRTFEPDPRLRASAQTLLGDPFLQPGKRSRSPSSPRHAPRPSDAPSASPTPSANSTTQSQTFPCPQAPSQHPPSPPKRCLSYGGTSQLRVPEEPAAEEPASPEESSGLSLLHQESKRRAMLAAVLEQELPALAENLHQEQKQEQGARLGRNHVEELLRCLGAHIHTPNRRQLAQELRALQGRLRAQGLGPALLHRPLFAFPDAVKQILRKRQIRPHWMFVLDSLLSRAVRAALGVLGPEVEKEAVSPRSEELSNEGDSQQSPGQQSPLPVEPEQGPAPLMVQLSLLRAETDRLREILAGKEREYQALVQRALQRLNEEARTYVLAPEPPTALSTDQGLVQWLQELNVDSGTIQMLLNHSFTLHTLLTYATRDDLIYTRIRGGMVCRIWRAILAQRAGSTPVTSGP
Chain of UniProt Q8IVH8 (whole entry, looked up): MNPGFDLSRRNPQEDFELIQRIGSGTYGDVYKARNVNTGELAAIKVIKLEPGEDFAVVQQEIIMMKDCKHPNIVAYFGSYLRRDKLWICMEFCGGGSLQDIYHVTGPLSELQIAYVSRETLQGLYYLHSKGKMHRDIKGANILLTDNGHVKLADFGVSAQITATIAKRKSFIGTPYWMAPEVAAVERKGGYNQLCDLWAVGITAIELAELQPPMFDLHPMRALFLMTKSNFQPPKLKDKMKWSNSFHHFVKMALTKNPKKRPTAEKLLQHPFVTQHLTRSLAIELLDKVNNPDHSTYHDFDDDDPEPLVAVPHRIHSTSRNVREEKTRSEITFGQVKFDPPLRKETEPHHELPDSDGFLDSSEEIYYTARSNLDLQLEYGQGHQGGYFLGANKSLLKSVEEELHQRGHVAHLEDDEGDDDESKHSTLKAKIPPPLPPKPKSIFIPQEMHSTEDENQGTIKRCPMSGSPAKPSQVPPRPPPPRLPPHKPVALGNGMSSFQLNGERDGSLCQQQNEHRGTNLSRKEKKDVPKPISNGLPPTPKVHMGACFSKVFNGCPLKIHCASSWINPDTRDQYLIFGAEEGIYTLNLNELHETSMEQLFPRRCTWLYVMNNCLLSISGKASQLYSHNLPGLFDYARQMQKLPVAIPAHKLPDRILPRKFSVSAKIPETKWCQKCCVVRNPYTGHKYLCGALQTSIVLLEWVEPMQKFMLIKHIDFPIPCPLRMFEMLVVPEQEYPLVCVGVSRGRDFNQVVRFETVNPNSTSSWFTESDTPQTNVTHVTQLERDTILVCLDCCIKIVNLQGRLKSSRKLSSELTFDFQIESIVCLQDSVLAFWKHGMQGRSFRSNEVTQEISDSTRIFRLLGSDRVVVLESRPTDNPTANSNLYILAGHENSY

Series 1
Structure (SMILES): CCC(=O)N[C@@H]1CC[C@H](C(=O)N(C)c2ccc(-c3nc4ccccc4o3)cc2)C1
Concentration: 1 µM
Measurement: remaining binding
MAP kinase-activated protein kinase 2 (MAPKAPK2, Homo sapiens, UniProt P49137); cell-free assay, competition with immobilised ligand: 87%
Tyrosine-protein kinase ABL1, phosphorylated (ABL1, Homo sapiens, UniProt P00519, E255K); binding, competition with immobilised ligand: 100%
cAMP-dependent protein kinase catalytic subunit PRKX (PRKX, Homo sapiens, UniProt P51817); cell-free assay, competition with immobilised ligand: 100%
Receptor-type tyrosine-protein kinase FLT3 (FLT3, Homo sapiens, UniProt P36888, R834Q); cell-free assay, competition with immobilised ligand: 100%
Fibroblast growth factor receptor 3 (FGFR3, Homo sapiens, UniProt P22607, G697C); cell-free assay, competition with immobilised ligand: 88%
LIM domain kinase 2 (LIMK2, Homo sapiens, UniProt P53671); cell-free assay, competition with immobilised ligand: 100%
Ribosomal protein S6 kinase alpha-2, C-terminal kinase domain (RPS6KA2, Homo sapiens, UniProt Q15349); cell-free assay, competition with immobilised ligand: 100%
Serine/threonine-protein kinase 24 (STK24, Homo sapiens, UniProt Q9Y6E0); cell-free assay, competition with immobilised ligand: 100%
Transient receptor potential cation channel subfamily M member 6 (TRPM6, Homo sapiens, UniProt Q9BX84); cell-free assay, competition with immobilised ligand: 84%
Platelet-derived growth factor receptor alpha (PDGFRA, Homo sapiens, UniProt P16234); cell-free assay, competition with immobilised ligand: 86%
Tyrosine-protein kinase ABL1, phosphorylated (ABL1, Homo sapiens, UniProt P00519, Q252H); cell-free assay, competition with immobilised ligand: 87%
Mitogen-activated protein kinase kinase kinase kinase 3 (MAP4K3, Homo sapiens, UniProt Q8IVH8); cell-free assay, competition with immobilised ligand: 100%
Tyrosine-protein kinase ABL1, phosphorylated (ABL1, Homo sapiens, UniProt P00519, M351T); cell-free assay, competition with immobilised ligand: 100%
Serine/threonine-protein kinase RIO3 (RIOK3, Homo sapiens, UniProt O14730); cell-free assay, competition with immobilised ligand: 100%
Beta-adrenergic receptor kinase 1 (GRK2, Homo sapiens, UniProt P25098); cell-free assay, competition with immobilised ligand: 100%
MAP/microtubule affinity-regulating kinase 4 (MARK4, Homo sapiens, UniProt Q96L34); cell-free assay, competition with immobilised ligand: 82%
Serine/threonine-protein kinase MRCK gamma (CDC42BPG, Homo sapiens, UniProt Q6DT37); competition binding: 100%
Mitogen-activated protein kinase kinase kinase 6 (MAP3K6, Homo sapiens, UniProt O95382); cell-free assay, competition with immobilised ligand: 75%

Series 2
SMILES: CO[C@@H]1[C@H](N(C)C(=O)c2ccccc2)C[C@H]2O[C@]1(C)n1c3ccccc3c3c4c(c5c6ccccc6n2c5c31)C(=O)NC4
Mode: inhibitor
Concentration: 1 µM
Measurement: inhibition
Vascular endothelial growth factor receptor 3 (FLT4, Homo sapiens, UniProt P35916); enzyme activity: 96%
Serine/threonine-protein kinase MAK (MAK, Homo sapiens, UniProt P20794); enzyme activity: 4%
Cyclin-dependent kinase 4 (CDK4, Homo sapiens, UniProt P11802); enzyme activity: 11%
Serine/threonine-protein kinase PAK 1 (PAK1, Homo sapiens, UniProt Q13153); enzyme activity: 20%
Dual specificity testis-specific protein kinase 1 (TESK1, Homo sapiens, UniProt Q15569); enzyme activity: 0%
cAMP-dependent protein kinase catalytic subunit PRKX (PRKX, Homo sapiens, UniProt P51817); enzyme activity: 66%
Serine/threonine-protein kinase VRK2 (VRK2, Homo sapiens, UniProt Q86Y07); enzyme activity: 32%
Non-receptor tyrosine-protein kinase TYK2, JH1 domain (TYK2, Homo sapiens, UniProt P29597): 7%

Series 3
Target: Calcium/calmodulin-dependent protein kinase type II subunit alpha (CAMK2A, Homo sapiens, UniProt Q9UQM7)
Chain of UniProt Q9UQM7 (whole entry, looked up): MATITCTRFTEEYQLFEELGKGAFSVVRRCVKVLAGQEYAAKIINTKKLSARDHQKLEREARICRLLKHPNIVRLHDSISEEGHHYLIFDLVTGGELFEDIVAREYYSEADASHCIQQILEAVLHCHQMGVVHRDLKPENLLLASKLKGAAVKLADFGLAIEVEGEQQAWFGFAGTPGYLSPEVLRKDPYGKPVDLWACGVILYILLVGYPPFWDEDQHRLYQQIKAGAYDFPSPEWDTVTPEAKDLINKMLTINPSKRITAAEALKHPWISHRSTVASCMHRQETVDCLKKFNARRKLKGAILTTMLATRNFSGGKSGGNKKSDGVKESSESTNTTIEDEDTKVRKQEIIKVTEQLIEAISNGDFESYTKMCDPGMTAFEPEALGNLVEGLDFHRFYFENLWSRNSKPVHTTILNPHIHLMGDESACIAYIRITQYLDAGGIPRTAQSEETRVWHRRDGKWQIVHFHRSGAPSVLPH
Effect on: enzyme activity
Mode: inhibitor
Concentration: 10 µM
Measurement: inhibition
CC(=O)OCC(=O)[C@@]12OC(C)(C)O[C@@H]1C[C@H]1[C@@H]3C[C@H](F)C4=CC(=O)C=C[C@]4(C)[C@@]3(F)[C@@H](O)C[C@@]12C: -7%
CCn1cc(C(=O)O)c(=O)c2ccc(C)nc21: -2%
O=C(O)C(O)C(O)C(=O)O (stereo not shown): 0.01%
COc1ccc(/C=C/c2cc(O)cc(O[C@@H]3O[C@H](CO)[C@@H](O)[C@H](O)[C@H]3O)c2)cc1: 31%
CCCCCCCCCCCCCCCCCCCCCC(=O)O: -9%

Series 4
Host: mouse
Matrix: microsomes or S9
Concentration: 2 µM
Time: 0.5 h
Measurement: remaining compound
CC(C)(C)OC(=O)CCc1nc(Cc2cccc3cccnc23)no1: 0.752%
Cc1ccccc1-c1nc2ccccc2cc1Cn1nc(-c2ccncc2)c2cnc(N)nc21: 9.35%
COc1cc(-c2nc3c(s2)CNCC3)cc(OC)c1OC: 70.8%
CC(C)n1ncc2c1N=C(O)CC2C1CCCCC1 (stereo not shown): 3.87%
Cc1ccc(C2c3cccn3-c3sc4c(c3CN2C(=O)Nc2ccc(F)cc2F)CCCC4)cc1 (stereo not shown): 29.2%
CCn1nc(-c2csc(C)n2)nc1-c1ccc2[nH]c(C)nc2c1: > 100%

A few entries again (series 4):
Cc1ccccc1-c1nc2ccccc2cc1Cn1nc(-c2ccncc2)c2cnc(N)nc21: 9.35%
CC(C)(C)OC(=O)CCc1nc(Cc2cccc3cccnc23)no1: 0.752%
COc1cc(-c2nc3c(s2)CNCC3)cc(OC)c1OC: 70.8%
CCn1nc(-c2csc(C)n2)nc1-c1ccc2[nH]c(C)nc2c1: > 100%
CC(C)n1ncc2c1N=C(O)CC2C1CCCCC1 (stereo not shown): 3.87%
